# Measurements gathered from unrelated publications.
# Parts stem from different laboratories: compare values within a part only. Changes are numbered by the printed parent chain.

# Study 1
# Target: RNA binding protein fox-1 homolog 2, RRM domain, GST-SBP tag (RBFOX2, Homo sapiens, UniProt O43251-10, residues 100-194)
# Technique: RNA Bind-n-Seq
# Molecule type: RNA
# Sample: in vitro
# Tested at: 365 nM
# Notes: natural RNA segment, single round, ends assumed
# Baseline: no-protein control
# Direction: higher = stronger binding
# All sequences stand within: GGGAGUUCUACAGUCCGACGAUC … UGGAAUUCUCGGGUGCCAA
# Construct (chain): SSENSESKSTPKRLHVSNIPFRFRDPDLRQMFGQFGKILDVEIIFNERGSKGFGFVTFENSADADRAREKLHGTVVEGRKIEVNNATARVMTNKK
Sequence,RBNS enrichment (R)
CUUCCCUGGUCCCCUCCUUUCUGGCCAUUGUCAUCCAUUUCCCAGUUAGGGCAACAAUGAAGGAGGACCCAGCCAAGCUAGAAGGAAUUUUGUGGAUGGGAGACAGCAGG,0.365
AGGUGCUACAUUUCUAUCUGUUGGUUUCAAUUCUGCCAUAUUUCAUGUCUAGCCUUUAGAGUGGCCAAUCAUGUUUUACUUUCAUUUAAGCACUGGUAGUCUGGAGUACC,0.448
UAGGAGCCCCGCGGCCCAGCAGGUGCGGCGCGCACGGAGCGCCCCGGCCGGCGGCUUCUCCCGGAGGCCCCGGCGCCCGCACCCACCCGGCCCGGCCCCGAGAGCAGGCU,0.822
UGCUAUUAAAUCAUUUAGAAUGUUUACAUUUACUAAGGUGUGCUGGGUCAUGUAAAAUAUUAGACACUAAUAUUUUCAUAGAAAUUAGGCUGGAGAAAGAAGGAAGAAAU,0.345
UGUCACGGCUAAUGUGAAAUCUCUUCCCGUGGCGCCCAUCCUCUGACUCUGCAGUGCCAGCUUGGACAGAUUGAGGUCUCUGUGGCUUUGGUGACCCUGCUUAAGCAUUC,0.45
CACUUCUUCAGUGAUUCUUCAGUGAUCCUGAGAGACUAACAGCUGGAGACUCUAGCUGGAGCAGUUGGCUCCUAUUGGCUGUGUUUGCCUGUCUGUCUUCCUGUCACGUG,0.572
UAAUUAUGAUUUUCUCUUCAUACGAGCUGUUAGAAAGCUCAGCAUUAAAUUUGUGGCUCACCUCUAGCAAAUAUAUAACACUUAAUGAUGUGACUGUCCUGAUUCUAAAA,0.703
UAAACAGUCUAGGUGCUCCUAACAACCACCCCCUGCCCGGGCCUCUCCUUUGUGAGCCACAGUUGUAGACCGUACCUCAGCCUUGGAGUCAACACAGCCCACAGCCCAUU,0.474
ACACCUUCAGCAGUGAAGGAUUCUAACACAGGGAAUCUGCAGUUUGUAGCAGAAUGGUAUUUUCCUCAAGUAGCUCAUAAUACUGCCAAAUCUCAAAAGUUAAGCUGAAU,0.321
UAAGACAGGGAAAGCAAGUUCAUGGUACAUACGCAGCCAUUGUCUCUGUUUUUACCCAUGGCAGACAUUGCUAAUCAAUGGCAGCUCUAUUUCACUGAGUCUGGAUAAGG,0.89
UCCAGACCAGGCUGGCCGACAUGGUGAAACCCCAUCUCUACUAAAAAAUAUAAAAAUUAGCCGGGCUUUGUGGCAUGUGCCUGUAAUCCCAGCUAUUUGGCAGGCUGAGG,0.773
UUUACUGUUGCUUAUCUCCAAGAUAUUAUGGAAUUAAGAAUUUUUCCAGAUGAGUGUUACAUAGAUUCUUUGAAUUUAGUAUAAAAGUACUGAGAAUUAAGUUUGUACUU,0.542

# Study 2
# Target: human cyclin B1
# Effect on: peptide binding
# Technique: yeast competitive growth sequencing
# Molecule type: peptide
# Organism: Saccharomyces cerevisiae
# Strain: cyclin B1-Cln2 fusion
# Tested at: concentration not given
# Notes: peptide tiling library
# Direction: direction not given
Molecule,binding enrichment score
AKRSLGFLPQPVPL,0.172
RRVLCFDS,0.112
PARRRLRLSVDEVSSP,0.372
ALLRRLQDVANDRGSH,-0.126
FREFEVEKQTAEETGL,1.08
IPDRSTKPVVFSPT,-0.354
KPHVSDEEEEEPPFYH,0.479
DSDSDSEGGAAGGEAD,1.22
SGYLTDENEVGFRG,0.305
FQDSGYNELKSCSFDN,0.163
NFETPEAETPIRSPFK,0.38
QYQVVDDIVSKLVFDF,1.1
RNRGPKLNAMLRLGVL,-0.559
QNPCGSKACRRLFGPV,0.065
LENIEPLQVSFAVLSS,-0.0822
KPKPVKPVTFSTGIKM,-0.341
AEHPKPSACRNLFGPV,0.046
EPRNLLSLFEDTLDPT,0.783
KRCATPVIIDEILPSK,0.0649
IVLICAKRSLCAAFSV,-0.0182
IQKKLRFEDTLEFVGF,0.667
TARRIFQEPTEPKTKA,0.564
DGCSPIKNWSPMRL,-0.382
KPITLDTTDFQESFVT,0.281
SSEVARHLLFQSHM,0.268

# Study 3
# Target: Hepatocyte nuclear factor 3-beta, forkhead domain (FOXA2, Homo sapiens, UniProt Q9Y261, residues 142-269)
# Technique: protein-binding microarray
# Molecule type: double-stranded DNA, one strand shown
# Sample: in vitro
# Tested at: not given
# Notes: k-mer, scored over probes, only values ≥0.25
# Direction: higher = stronger binding
# Construct (chain): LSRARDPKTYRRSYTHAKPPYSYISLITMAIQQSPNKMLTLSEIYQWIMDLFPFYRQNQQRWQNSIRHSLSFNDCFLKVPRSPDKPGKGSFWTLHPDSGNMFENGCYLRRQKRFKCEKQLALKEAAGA
Sequence,E-score
GTGATAAC,0.259
CTATGCAA,0.261
TCTGTACA,0.256
ATGTCACA,0.317
ACTTAAAC,0.263
AATCCATA,0.298
AGAATAAA,0.281
CTACACTA,0.284
ATTCATTC,0.254
AATGACAA,0.3
TACCACGA,0.28
ATTAGATA,0.306
TATGTGAA,0.277
ACGATACA,0.251
AATACAAA,0.357
ATATACGG,0.281
AGAAATAG,0.282
CACATATG,0.308
ATATCAGA,0.319
ATATATAT,0.302
AATACATA,0.402
CCAATACA,0.292
ACATTTCA,0.257
AATAAATA,0.353
ACAAAGTA,0.268

# Study 4
# Target: BATF, bZIP domain (human)
# Technique: DHFR protein complementation
# Sample: yeast
# Notes: single substitutions, most at no-binding floor
# Baseline: wild-type JUN-FOS pair
# Direction: higher = stronger binding
# Parent: JUN, bZIP domain (human); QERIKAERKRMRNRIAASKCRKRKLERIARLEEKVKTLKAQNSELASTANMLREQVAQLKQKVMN; partner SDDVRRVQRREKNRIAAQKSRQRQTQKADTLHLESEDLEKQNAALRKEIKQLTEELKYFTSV
Change,binding fitness
E32N,-0.263 natural log
Q55M,-0.126 natural log
Q41W,-1.24 natural log
N42F,-0.283 natural log
K36W,-0.229 natural log
R30H,0.038 natural log
E33P,-0.774 natural log
E32H,-0.133 natural log
S47P,-0.94 natural log
R30V,0.209 natural log
R53K,-0.0807 natural log
K39L,-0.257 natural log
T48C,-0.0825 natural log
E32V,-0.0446 natural log
E32A,0.221 natural log
Q41V,-0.0267 natural log
A49L,-0.134 natural log
R30A,0.212 natural log
S43G,0.018 natural log
A40P,-1.22 natural log
A49R,0.064 natural log
Q58W,-0.165 natural log
A46Y,-0.168 natural log
E32F,-0.338 natural log
S43K,0.123 natural log

# Study 5
# Target: Histone acetyltransferase KAT6A, both winged helices, GST fusion (KAT6A, Homo sapiens, UniProt Q92794, residues 1-181)
# Technique: protein binding microarray
# Molecule type: double-stranded DNA, one strand shown
# Sample: in vitro
# Tested at: not given
# Notes: 8-mer, flanks averaged, mean of 2 arrays, mostly near background
# Baseline: not given
# Direction: higher = stronger binding
# Target sequence (chain): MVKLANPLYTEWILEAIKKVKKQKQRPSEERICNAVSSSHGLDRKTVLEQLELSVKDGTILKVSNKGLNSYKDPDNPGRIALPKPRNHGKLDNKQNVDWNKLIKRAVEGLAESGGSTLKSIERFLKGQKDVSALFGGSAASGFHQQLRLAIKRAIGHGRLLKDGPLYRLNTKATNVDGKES
Sequence,E-score
CGGAACAG,0.192
GAAGTACA,-0.1
CGGAGGCA,0.0503
CCTCTTGA,-0.186
AGCCAAAT,-0.109
AGCGTAGC,0.171
CAGACAGG,-0.0245
AGAGCGTC,0.0158
CGGTAGCC,0.141
CCTCCACA,-0.228
CGTGTGAC,0.12
GTGTAAGA,-0.124
CACTCTCC,-0.0698
AACAACCC,0.00061
AAGGTGCA,-0.129
ATTGGTTC,-0.0425
CTCTTATA,0.037
CTGTAAGA,-0.0705
ATCGGTCC,0.0966

# Study 6
# Target: Sal-like protein 4, full length isoform A (SALL4, Homo sapiens, UniProt Q9UJQ4, residues 1-1053)
# Chain of UniProt Q9UJQ4 (whole entry, looked up): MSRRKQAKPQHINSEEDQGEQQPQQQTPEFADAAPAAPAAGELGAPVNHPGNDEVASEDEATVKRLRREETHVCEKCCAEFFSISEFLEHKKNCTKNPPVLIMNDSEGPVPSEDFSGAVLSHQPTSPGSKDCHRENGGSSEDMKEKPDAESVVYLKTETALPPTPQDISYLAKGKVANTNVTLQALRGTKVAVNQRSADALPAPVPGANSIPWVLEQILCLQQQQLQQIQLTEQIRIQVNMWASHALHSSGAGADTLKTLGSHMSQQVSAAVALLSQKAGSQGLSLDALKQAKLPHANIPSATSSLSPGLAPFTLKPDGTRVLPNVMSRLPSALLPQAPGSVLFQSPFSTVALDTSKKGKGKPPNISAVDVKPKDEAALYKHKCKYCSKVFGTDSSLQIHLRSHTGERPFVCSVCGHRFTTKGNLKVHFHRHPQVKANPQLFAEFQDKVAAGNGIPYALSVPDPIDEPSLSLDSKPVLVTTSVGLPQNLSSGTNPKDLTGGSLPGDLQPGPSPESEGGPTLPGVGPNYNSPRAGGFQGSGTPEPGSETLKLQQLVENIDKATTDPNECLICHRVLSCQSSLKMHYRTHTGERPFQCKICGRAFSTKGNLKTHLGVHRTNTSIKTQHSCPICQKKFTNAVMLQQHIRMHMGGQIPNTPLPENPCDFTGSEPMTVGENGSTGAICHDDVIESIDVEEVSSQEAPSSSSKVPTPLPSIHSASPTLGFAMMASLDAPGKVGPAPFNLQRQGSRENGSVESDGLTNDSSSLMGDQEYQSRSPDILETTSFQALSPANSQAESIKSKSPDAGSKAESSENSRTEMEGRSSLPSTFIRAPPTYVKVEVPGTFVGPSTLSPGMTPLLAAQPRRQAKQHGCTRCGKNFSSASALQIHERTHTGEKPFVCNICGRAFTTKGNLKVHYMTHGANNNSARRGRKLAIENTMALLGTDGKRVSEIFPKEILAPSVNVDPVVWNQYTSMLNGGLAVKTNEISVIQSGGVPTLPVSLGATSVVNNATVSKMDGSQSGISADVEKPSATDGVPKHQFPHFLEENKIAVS
# Technique: universal PBM
# Molecule type: double-stranded DNA, one strand shown
# Sample: in vitro
# Tested at: 600 nM
# Notes: 8-mer, flanks averaged, mean of replicates
# Direction: higher = stronger binding
Sequence,E-score
AGTTAAGG,-0.0237
GCGGTACC,-0.273
CCCCTCCA,-0.149
GAAGTTCA,0.154
AGAGACAC,-0.0689
CCACAAGA,-0.0348
AGCGTAAG,-0.123
GACTGCTC,-0.353
TAGTCTCA,0.21
ACAGGCCA,-0.24
CGTGGCAG,-0.195
AACTCGAC,-0.122
ACACATTG,0.139
TGGTCTAA,0.0439
AAATTCTC,0.0423
CTAGATCA,-0.0139
ACTAATGA,0.274
CCTAAACA,0.0388
ACTACTTC,0.0115

# Repeated from above (study 4):
Change,binding fitness
S47P,-0.94 natural log
R30V,0.209 natural log
R53K,-0.0807 natural log
K39L,-0.257 natural log
T48C,-0.0825 natural log
E32V,-0.0446 natural log
E32A,0.221 natural log
